Measurements pooled from the literature.
Compare with care: the assays were run in different laboratories. ± marks the error that the study gave.

Cn1ncc(-c2nc(N[C@H]3CC[C@H](N)CC3)ncc2Cl)c1CC1CC1 — adverse event incidence (item: anemia grade 3 or higher; human patients phase I; dose not given): 33%
CC(C)(O)c1cc(Nc2cc(Oc3cn(C4CC4)nc3C3CCOCC3)ccn2)ccn1 — ALT increased, any grade (patients with advanced cancer, Japanese cohort; oral, dose not given, treatment-related adverse events): 22%
CCC[C@@](N)(CO)CCc1ccc(OCCCCCC(C)C)cc1 — Tmax (hound dogs, male; oral, 20 mg/kg, capsule, fed state, median): 6 h
CC(=O)c1c(C)c2cnc(Nc3ccc(C4CCN(CCS(C)(=O)=O)CC4)cn3)nc2n(C2CCCC2)c1=O — ALT increased (HR+/HER2- advanced breast cancer patients; oral, dose not given, grade 3 to 4): 1%
O=S(=O)(Nc1ccccc1)c1ccc(NC(=S)Nc2ccccc2)cc1 — relative organ weight (female mice, small intestine; oral, 20 mg/kg daily 14 days; baseline: body weight): 2.64%
CC(C)NCCCC[C@@H]1NC(=O)[C@H](Cc2ccc(O)cc2)NC(=O)[C@H](Cc2ccccc2)NC(=O)CC[C@H](C(=O)N[C@@H](CCCCNC(C)C)C(=O)N[C@@H](CCCCNC(=O)[C@H](CCC(=O)O)NC(=O)[C@H](CCC(=O)O)NC(=O)[C@H](CCC(=O)O)NC(=O)CN2CCN(CC(=O)O)CCN(CC(=O)O)CC2)C(N)=O)NC(=O)CNC(=O)[C@H](Cc2ccc3ccccc3c2)NC(=O)[C@@H](CCCNC(=N)N)NC1=O [fluorine-18 labelled] — standardized uptake value (PET/CT; female CB17 SCID beige mice, subcutaneous MM.1S xenograft, tumour; intravenous, 1 h): 1.18 ± 0.1 SUV
NCCCC[C@@H]1NC(=O)[C@@H](Cc2c[nH]c3ccccc23)NC(=O)[C@H](c2ccccc2)NC(=O)[C@@H]2C[C@@H](OC(=O)NCCN)CN2C(=O)[C@H](Cc2ccccc2)NC(=O)[C@H](Cc2ccc(OCc3ccccc3)cc2)NC1=O — subjects with adverse event Diarrhoea (healthy human volunteers; 1950 µg twice daily): 86%
O=C1Nc2cc3[nH]nc(-c4ccncc4)c3cc2CN1Cc1ccccc1 — patients with blurred vision (CTCAE v4.03; advanced solid tumour patients; intravenous, 6.4 mg/kg): 33%
CCS(=O)(=O)Nc1ccc(Oc2ccc(F)cc2F)c(-c2cn(C)c(=O)c3[nH]ccc23)c1 — treatment-emergent adverse events (serious Staphylococcal bacteremia; human, relapsed/refractory AML; oral, dose not given): 11%
C[C@@H]1OC(=O)NN=C1c1ccc(-c2ccc(F)cc2)c(C(F)(F)F)c1 — patients with adverse event (phase I trial, item: Nausea worst grade 1; human patients; 5 mg loading then 0.25 mg daily): 100%
COc1ccnc(C(=O)N[C@H]2COC(=O)[C@H](Cc3ccccc3)[C@@H](OC(=O)C(C)C)[C@H](C)OC2=O)c1OCOC(=O)C(C)C — DT50 (water, aerobic water/sediment; 20 °C, geometric mean): 0.26 days
C[C@@H]1NC(=O)[C@H](CCCCNC(=O)CO/N=C/C(=O)NCCCC[C@@H]2NC(=O)[C@@H](Cc3ccccc3)NC(=O)[C@H](CC(=O)O)NC(=O)CNC(=O)[C@H](CCCNC(=N)N)NC2=O)NC(=O)CNC(=O)[C@@H]2CCCN2C(=O)[C@H](CCCCNC(=O)CO/N=C/C(=O)NCCCC[C@@H]2NC(=O)[C@@H](Cc3ccccc3)NC(=O)[C@H](CC(=O)O)NC(=O)CNC(=O)[C@H](CCCNC(=N)N)NC2=O)NC(=O)[C@H](CCCCNC(=O)CCNC(=O)CCNC(=O)CCNC(=O)[C@H](CCCCN)NC(=O)[C@H](Cc2ccccc2)NC(=O)CNC(=O)CN2CCCNCCNCCCNCC2)NC(=O)[C@H](CCCCNC(=O)CO/N=C/C(=O)NCCCC[C@@H]2NC(=O)[C@@H](Cc3ccccc3)NC(=O)[C@H](CC(=O)O)NC(=O)CNC(=O)[C@H](CCCNC(=N)N)NC2=O)NC(=O)CNC(=O)[C@@H]2CCCN2C(=O)[C@H](CCCCNC(=O)CO/N=C/C(=O)NCCCC[C@@H]2NC(=O)[C@@H](Cc3ccccc3)NC(=O)[C@H](CC(=O)O)NC(=O)CNC(=O)[C@H](CCCNC(=N)N)NC2=O)NC1=O [copper-64 labelled] — tissue uptake (PET imaging; mouse, U-87 MG tumour xenograft, kidney; intravenous, 24 h): 4.22 ± 1.52 %ID/g
CC(C)[C@@H](CN1CC[C@@](C)(c2cccc(O)c2)[C@@H](C)C1)NC(=O)[C@@H]1Cc2ccc(O)cc2CN1C — AUCtotal (rat, brain; intraperitoneal, 5 mg/kg): 351 ng·h/g
CO[C@H]1C[C@@H]2CC[C@@H](C)[C@@](O)(O2)C(=O)C(=O)N2CCCC[C@H]2C(=O)O[C@H]([C@H](C)C[C@@H]2CC[C@@H](OC(=O)NCCOCCOCCOCCOCCOCCOCCOCCOCCC(=O)N3CCc4cc(Cn5nc(-c6ccc7oc(N)nc7c6)c6c(N)ncnc65)ccc4C3)[C@H](OC)C2)C[C@@H](O)[C@H](C)/C=C(\C)[C@@H](O)[C@@H](OC)C(=O)[C@H](C)C[C@H](C)/C=C/C=C/C=C/1C — patients with AE (item: treatment-emergent AEs; patients with advanced solid tumours; intravenous, dose not given, any grade, all doses): 0%
Cn1cc(-c2nc(N[C@@H]3CCCC[C@@H]3N)c(F)c3c2C(=O)NC3)cn1 — hemorrhagic adverse events (item: Gastrointestinal haemorrhage; patients with relapsed or refractory AML; oral, 100 mg once daily): 14%
CC(C)[C@H](NC(=O)[C@H](CO)NC(=O)CNC(=O)[C@H](CO)NC(=O)[C@H](CCCNC(=N)N)NC(=O)[C@H](CCC(N)=O)NC(=O)[C@@H]1CCCN1C(=O)[C@@H](NC(=O)[C@H](CCCNC(=N)N)NC(=O)[C@H](CCCNC(=N)N)NC(=O)[C@H](CCCNC(=N)N)NC(=O)[C@H](CCC(N)=O)NC(=O)[C@H](CCCNC(=N)N)NC(=O)[C@H](CCCNC(=N)N)NC(=O)[C@H](CCCCN)NC(=O)[C@H](CCCCN)NC(=O)[C@H](CCCNC(=N)N)NC(=O)CNC(=O)[C@@H](N)Cc1ccc(O)cc1)[C@@H](C)O)C(=O)N[C@@H](CO)C(=O)N[C@@H](CC(N)=O)C(=O)N[C@@H](Cc1ccc(O)cc1)C(=O)N[C@@H](CCCNC(=N)N)C(=O)N[C@@H](CO)C(=O)N[C@@H](CS)C(=O)N[C@@H](CCC(N)=O)C(=O)N[C@@H](CCCNC(=N)N)C(=O)O — suppression of glucose production (primary hepatocytes from HFD-fed mice, mouse, high-fat diet-fed; concentration not given): > 55%
COc1cc2c(Oc3ccc4[nH]c(C)cc4c3F)ccnc2cc1OCC1(N)CC1 — Hypertension incidence (paediatric recurrent refractory sarcoma; 12 mg): 9.1%
C[C@]1(CO)Cc2ncn(-c3ccc(C#N)c(Cl)c3)c2C(=O)O1 — subjects with any TEAE (human; 0.7 mg single dose): 28.6%
O.O.O.O.O.O.[Cl-].[Cl-].[Co+2] — cobalt in faeces (rat female, faeces; oral, 10 mg/kg single, day 2; baseline: vehicle control subtracted): 2.77 µg/g
CC(C)C(=O)OC[C@H]1O[C@@H](n2ccc(NO)nc2=O)[C@H](O)[C@@H]1O — autosampler stability (rat fetus dialysate; 250 ng/mL, 6 h, 10 °C, high QC concentration, with: NHC 1000 ng/mL): 99.7 ± 2.02%
C[C@@H](NC(=O)N1C(=O)[C@H](Cc2ccnc(N)c2)[C@H]1C(=O)O)C1CCCCC1 — abnormal liver function leading to discontinuation (healthy adult Chinese volunteers; continuous intravenous infusion, 2.25 mg/kg/h, 5-day infusion, CTCAE 5.0 grading): 25%
CC(C)[C@@H]1NC(=O)CNC(=O)[C@H](CC(N)=O)NC(=O)[C@H](CCCNC(=N)N)NC(=O)[C@H](Cc2ccc(O)cc2)NC(=O)[C@H](C(C)C)NC(=O)[C@@H](NC(=O)[C@@H](NC(=O)[C@H](CC(N)=O)NC(=O)[C@H](Cc2c[nH]c3ccccc23)NC(=O)[C@H](C)NC(=O)[C@H](Cc2ccccc2)NC(=O)CN)C(C)C)CSSC[C@@H](C(=O)N[C@@H](Cc2cnc[nH]2)C(=O)N[C@@H](CCCNC(=N)N)C(=O)N[C@@H](CCCNC(=N)N)C(=O)N[C@@H](C)C(=O)N[C@@H](CC(N)=O)C(N)=O)NC(=O)[C@H](C(C)C)NC(=O)[C@H](CCCNC(=N)N)NC1=O — spasm score (ICR mouse; ip, 5 mg/kg; direction not given): 0
CCc1ccc(CC/C=C/c2ccc3c(c2)C(=O)CC3)cc1 — hematocrit (Sprague-Dawley rat, male, blood; oral, 30 mg/kg/day, 14 days): 47.8%
O=C(Nc1ccccc1)C1CCN(C(=O)Oc2cccnc2)CC1 — adverse event Somnolence (healthy women; oral, 20 mg, 7 days): 0%
CNC(=O)CC1C(=O)N(C2CCN(C3CCC(C(C)C)CC3)CC2)c2ccccc21 (stereo not shown) — sedation duration (conscious Sprague-Dawley rat; intravenous bolus, 30 nmol/kg): ~30 min
